Assay results collected from several papers.
Target: Serine/threonine-protein kinase 10 (STK10, Homo sapiens, UniProt O94804)
Chain of UniProt O94804 (whole entry, looked up): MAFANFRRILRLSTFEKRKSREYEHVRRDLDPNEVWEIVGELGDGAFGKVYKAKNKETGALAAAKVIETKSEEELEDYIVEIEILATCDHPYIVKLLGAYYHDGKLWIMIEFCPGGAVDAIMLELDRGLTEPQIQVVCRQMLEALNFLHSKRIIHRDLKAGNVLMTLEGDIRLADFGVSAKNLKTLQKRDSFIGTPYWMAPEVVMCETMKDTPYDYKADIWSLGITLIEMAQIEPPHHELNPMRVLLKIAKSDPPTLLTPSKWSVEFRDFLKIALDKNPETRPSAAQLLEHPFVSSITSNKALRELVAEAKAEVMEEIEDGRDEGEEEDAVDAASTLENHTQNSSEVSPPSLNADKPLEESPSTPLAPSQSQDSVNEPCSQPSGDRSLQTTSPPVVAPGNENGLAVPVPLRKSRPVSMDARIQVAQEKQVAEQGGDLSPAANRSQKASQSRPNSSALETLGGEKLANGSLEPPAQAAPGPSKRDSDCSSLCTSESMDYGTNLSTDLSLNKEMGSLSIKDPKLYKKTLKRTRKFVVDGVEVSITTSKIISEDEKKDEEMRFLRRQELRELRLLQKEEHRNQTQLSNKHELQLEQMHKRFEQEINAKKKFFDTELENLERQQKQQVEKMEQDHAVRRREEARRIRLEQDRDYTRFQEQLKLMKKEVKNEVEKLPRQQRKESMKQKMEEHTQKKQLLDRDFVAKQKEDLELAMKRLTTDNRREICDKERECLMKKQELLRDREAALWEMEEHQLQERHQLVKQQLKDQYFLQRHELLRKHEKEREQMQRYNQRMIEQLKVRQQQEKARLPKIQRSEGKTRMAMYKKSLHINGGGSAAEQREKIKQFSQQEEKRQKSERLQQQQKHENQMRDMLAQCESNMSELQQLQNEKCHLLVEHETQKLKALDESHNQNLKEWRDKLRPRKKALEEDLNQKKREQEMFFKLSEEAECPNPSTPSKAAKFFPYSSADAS

Structure (SMILES)	assay	setting	scale	endpoint	value
CCCOc1ccc(OC)c(F)c1C(=O)c1ccc(C(=O)N[C@@H]2CNC[C@H]2NC(=O)c2ccc3[nH]ncc3c2)cc1	enzyme activity	10 µM	–	remaining activity	64%
O=C(NC1CCC1)c1ccc2nc(-c3cccc(NS(=O)(=O)NCCN4CCCCC4)c3)cn2c1	enzyme activity	10 µM	–	remaining activity	100%
C[C@@H](c1ccc(-n2cnc3c(N)ncnc32)cc1)N1CCc2nn(C)c(Cc3ccccc3)c2C1=O	KINOMEscan	0.1 µM	reference: DMSO control	remaining binding	23%
Cc1cc(Nc2cc(N3CCN(C)CC3)nc(Sc3ccc(NC(=O)C4CC4)cc3)n2)[nH]n1	kinase activity, KinaseProfiler	0.03 µM, species human	reference: control	remaining activity	97%
C=CC(=O)N1CCC(COCC(=O)N2CCN(c3nc(-c4cnc(N)nc4C(F)F)nc(N4CCOC[C@@H]4C)n3)CC2)CC1	KINOMEscan	1 µM	reference: DMSO control	remaining binding	100%
C=CC(=O)N1CCC(C(=O)NCC(=O)N2CCN(c3nc(-c4cnc(N)nc4C(F)F)nc(N4CCOCC4)n3)CC2)CC1	KINOMEscan	1 µM	–	remaining binding	95%
C1=C/COCc2cc(ccc2OCCN2CCCC2)Nc2nccc(n2)-c2cccc(c2)COC/1	–	concentration not given, kinase construct LOK	reference: control	binding	89%
COc1cc(F)ccc1-c1ncnc(Nc2cccc(C[S@](C)(=N)=O)c2)n1	kinase activity	10 µM, added: 10 µM ATP	–	remaining activity	37%
CCN(CC)c1ccc(C2=NNC(=O)CC2C)cc1[N+](=O)[O-] (stereo not drawn)	enzyme activity, inhibitor	10 µM	reference: vehicle	remaining activity	92%

A few entries again:
Structure (SMILES)	assay	setting	scale	endpoint	value
CCCOc1ccc(OC)c(F)c1C(=O)c1ccc(C(=O)N[C@@H]2CNC[C@H]2NC(=O)c2ccc3[nH]ncc3c2)cc1	enzyme activity	10 µM	–	remaining activity	64%
